Measurements gathered from unrelated publications.
Each numbered part is a random draw from the data of one study; scales do not carry over between parts.

Series 1
Target: Histone acetyltransferase KAT6A, both winged helices, GST fusion (KAT6A, Homo sapiens, UniProt Q92794, residues 1-181)
Method: protein binding microarray
Form: double-stranded DNA, one strand shown
Medium: in vitro
Tested at: not given
Notes: 8-mer, flanks averaged, mean of 2 arrays, mostly near background
Reference: not given
Direction: higher = stronger binding
Residues (chain): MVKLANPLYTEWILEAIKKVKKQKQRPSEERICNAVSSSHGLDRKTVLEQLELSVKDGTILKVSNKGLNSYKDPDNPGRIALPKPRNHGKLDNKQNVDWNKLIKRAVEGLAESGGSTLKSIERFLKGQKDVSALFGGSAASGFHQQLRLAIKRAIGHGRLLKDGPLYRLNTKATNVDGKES
Sequence | E-score
AACGACTT | -0.135
CAGTCTGC | -0.119
AGGTGTGC | -0.134
CAGAGTCC | -0.131
AAGTGATA | -0.133
AGTTCTGG | -0.169

Series 2
Target: PABPC1L2, full length, GST fusion (mouse, UniProt A0ABA7IW68)
Method: RNAcompete
Form: RNA
Medium: in vitro
Tested at: 20 nM
Notes: 7-mer, probes averaged, single round
Reference: mean of 7-mers
Direction: higher = stronger binding
Target sequence (chain): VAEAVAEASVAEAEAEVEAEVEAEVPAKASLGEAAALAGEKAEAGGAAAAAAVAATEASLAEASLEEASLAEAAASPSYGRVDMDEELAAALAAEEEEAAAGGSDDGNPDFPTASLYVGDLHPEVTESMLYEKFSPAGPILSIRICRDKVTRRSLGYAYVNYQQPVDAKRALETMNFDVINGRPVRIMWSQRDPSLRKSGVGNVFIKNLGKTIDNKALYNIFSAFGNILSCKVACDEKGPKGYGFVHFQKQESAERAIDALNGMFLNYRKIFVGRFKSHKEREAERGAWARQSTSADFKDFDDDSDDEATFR
Sequence | 7-mer Z-score
UCACGCG | -0.269
UUGGAUC | -0.18
AUCAAUA | 0.0189
UCAUCGA | -0.277
AGACAUU | -0.168

Series 3
Target: RNA binding protein fox-1 homolog 2, RRM domain, GST-SBP tag (RBFOX2, Homo sapiens, UniProt O43251-10, residues 100-194)
Method: RNA Bind-n-Seq
Form: RNA
Medium: in vitro
Tested at: 365 nM
Notes: natural RNA segment, single round, ends assumed
Reference: no-protein control
Direction: higher = stronger binding
Sequence | RBNS enrichment (R)
GGGAGUUCUACAGUCCGACGAUCGUGGCUGGGGCUCCCUUACCAGAGGGGCAAGUCUGGCCCCUCAGUCCUUAACUGGAAAGUGACCCUCUUCUACCCCUGGAGUCCAUCUGGACAGAGCCAGCCUGAGGCCCUGGAAUUCUCGGGUGCCAA | 0.566
GGGAGUUCUACAGUCCGACGAUCCAAAUAAACACAUACUCAUUGUGAACUCUCUGUUGUUGUCCAUUUCAAAUCUGGAUUGUUCUGUGAAGGGUCUCACUUUUGUAUCAUGAGACAAGAGUGCCUAUGAGAAAUGGAAUUCUCGGGUGCCAA | 0.506
GGGAGUUCUACAGUCCGACGAUCGGGGUAUUGCCACGCUGUUGUCUUGCUGCCCAUUCACUCCAUGUGCUGCUGUCCUUCCUUCACUUCAUACUCUCAAAGAAACCAUCACCCUUUCUUCCUAUUUUUUUUUGUGGAAUUCUCGGGUGCCAA | 1.29
GGGAGUUCUACAGUCCGACGAUCUCGCAGGGCAGGCUUGGUGCACUGGCUUCUCUCACAUCUUUCUUGCAAUUAUGAUACUCUGAGAUUUGCUGUUGUGCUUAAAGACAAAAGUCUGGACUCAGCCACAAACUUGGAAUUCUCGGGUGCCAA | 0.586

Single results of other studies
Molecule | target | test | test system | setting | how to read | quantity | value
PhoQ, residues 284 288 289 292 302 303 AQGLTV | PhoP, residues 12 14 15 18 19 SEGLL (Escherichia coli, UniProt P23836) | Sort-seq, item: YFP reporter | E. coli | PhoQ-PhoP variant library, added: 10 µM Mg2+ | reference: high Mg2+ state, higher = stronger signaling | fold induction | 10.6
